Results collected from several papers.
Every numbered part comes from another study and shows a few of its results, in no order.
UniProt Q9UM73, sequence (whole entry, unmodified, looked up): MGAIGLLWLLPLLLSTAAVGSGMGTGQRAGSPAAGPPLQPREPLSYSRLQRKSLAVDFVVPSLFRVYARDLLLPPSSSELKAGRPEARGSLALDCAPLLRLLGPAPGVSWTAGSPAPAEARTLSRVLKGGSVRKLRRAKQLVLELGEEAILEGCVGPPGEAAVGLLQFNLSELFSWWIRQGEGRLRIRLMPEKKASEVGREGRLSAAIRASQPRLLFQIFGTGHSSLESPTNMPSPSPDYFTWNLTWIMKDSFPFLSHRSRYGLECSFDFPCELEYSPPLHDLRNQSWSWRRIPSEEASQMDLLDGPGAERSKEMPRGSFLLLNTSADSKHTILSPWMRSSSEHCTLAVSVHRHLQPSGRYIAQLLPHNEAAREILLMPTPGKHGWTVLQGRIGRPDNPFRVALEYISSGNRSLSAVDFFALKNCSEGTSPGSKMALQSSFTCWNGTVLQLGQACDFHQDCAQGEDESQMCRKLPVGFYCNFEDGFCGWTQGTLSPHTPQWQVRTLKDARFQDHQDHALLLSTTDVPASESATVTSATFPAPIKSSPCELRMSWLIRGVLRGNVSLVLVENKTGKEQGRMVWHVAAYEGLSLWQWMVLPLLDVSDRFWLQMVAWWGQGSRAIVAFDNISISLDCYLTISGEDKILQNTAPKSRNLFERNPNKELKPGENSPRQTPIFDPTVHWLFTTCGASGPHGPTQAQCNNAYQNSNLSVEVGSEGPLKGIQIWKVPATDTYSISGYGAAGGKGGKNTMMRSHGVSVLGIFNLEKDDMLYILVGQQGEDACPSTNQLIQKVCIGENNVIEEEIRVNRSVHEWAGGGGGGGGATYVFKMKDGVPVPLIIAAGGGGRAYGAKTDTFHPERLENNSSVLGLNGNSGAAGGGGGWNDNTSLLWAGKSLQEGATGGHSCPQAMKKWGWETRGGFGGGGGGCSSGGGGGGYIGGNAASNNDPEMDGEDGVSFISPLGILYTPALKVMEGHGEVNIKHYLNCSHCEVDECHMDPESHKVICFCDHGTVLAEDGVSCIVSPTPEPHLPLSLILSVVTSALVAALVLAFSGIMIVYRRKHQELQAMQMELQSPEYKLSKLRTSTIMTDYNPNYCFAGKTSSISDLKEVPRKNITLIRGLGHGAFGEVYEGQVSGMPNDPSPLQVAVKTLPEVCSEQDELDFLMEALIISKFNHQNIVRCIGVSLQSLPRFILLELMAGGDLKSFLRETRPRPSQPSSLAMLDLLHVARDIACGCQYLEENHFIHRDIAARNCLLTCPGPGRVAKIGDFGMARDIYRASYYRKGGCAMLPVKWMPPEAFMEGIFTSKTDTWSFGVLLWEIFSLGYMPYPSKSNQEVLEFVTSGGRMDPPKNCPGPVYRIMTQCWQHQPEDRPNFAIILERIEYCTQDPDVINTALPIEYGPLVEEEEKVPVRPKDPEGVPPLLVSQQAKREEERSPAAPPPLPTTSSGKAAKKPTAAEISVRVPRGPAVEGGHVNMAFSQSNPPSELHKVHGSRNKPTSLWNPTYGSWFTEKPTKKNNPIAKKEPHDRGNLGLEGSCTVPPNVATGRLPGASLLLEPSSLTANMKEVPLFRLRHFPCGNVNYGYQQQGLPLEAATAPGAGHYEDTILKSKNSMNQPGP
UniProt Q96PY6, sequence (whole entry, looked up): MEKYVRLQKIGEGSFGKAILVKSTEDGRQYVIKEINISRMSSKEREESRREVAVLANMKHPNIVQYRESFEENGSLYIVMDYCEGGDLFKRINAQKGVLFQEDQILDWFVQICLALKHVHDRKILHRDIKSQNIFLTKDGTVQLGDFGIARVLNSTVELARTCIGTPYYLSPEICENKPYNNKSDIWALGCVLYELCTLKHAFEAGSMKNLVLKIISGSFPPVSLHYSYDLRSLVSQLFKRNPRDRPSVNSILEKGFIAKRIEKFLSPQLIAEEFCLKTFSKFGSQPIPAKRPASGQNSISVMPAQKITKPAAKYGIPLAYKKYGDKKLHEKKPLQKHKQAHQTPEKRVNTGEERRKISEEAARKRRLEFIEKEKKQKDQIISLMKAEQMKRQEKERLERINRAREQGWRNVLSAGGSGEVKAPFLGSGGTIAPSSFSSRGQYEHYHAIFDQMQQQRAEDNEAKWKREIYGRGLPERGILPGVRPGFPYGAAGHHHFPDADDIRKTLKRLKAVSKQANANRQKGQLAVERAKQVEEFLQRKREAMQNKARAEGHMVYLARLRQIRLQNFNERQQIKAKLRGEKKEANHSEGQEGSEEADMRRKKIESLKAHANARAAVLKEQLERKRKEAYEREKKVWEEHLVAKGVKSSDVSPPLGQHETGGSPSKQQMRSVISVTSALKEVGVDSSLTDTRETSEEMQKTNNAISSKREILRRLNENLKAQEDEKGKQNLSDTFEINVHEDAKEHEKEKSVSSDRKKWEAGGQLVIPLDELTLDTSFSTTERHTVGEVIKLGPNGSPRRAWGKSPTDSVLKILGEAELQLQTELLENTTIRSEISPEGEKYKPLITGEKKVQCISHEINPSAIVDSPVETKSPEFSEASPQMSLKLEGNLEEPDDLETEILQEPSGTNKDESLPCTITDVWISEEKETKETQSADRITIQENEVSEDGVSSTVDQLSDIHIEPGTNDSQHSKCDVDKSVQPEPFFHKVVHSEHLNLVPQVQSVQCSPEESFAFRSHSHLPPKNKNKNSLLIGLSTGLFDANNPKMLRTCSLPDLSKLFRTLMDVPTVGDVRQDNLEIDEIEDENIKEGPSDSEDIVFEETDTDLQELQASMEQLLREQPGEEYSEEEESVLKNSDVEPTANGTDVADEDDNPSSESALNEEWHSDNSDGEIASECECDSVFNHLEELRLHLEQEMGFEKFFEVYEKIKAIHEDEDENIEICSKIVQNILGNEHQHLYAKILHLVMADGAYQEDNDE
UniProt P00519, sequence (whole entry, looked up): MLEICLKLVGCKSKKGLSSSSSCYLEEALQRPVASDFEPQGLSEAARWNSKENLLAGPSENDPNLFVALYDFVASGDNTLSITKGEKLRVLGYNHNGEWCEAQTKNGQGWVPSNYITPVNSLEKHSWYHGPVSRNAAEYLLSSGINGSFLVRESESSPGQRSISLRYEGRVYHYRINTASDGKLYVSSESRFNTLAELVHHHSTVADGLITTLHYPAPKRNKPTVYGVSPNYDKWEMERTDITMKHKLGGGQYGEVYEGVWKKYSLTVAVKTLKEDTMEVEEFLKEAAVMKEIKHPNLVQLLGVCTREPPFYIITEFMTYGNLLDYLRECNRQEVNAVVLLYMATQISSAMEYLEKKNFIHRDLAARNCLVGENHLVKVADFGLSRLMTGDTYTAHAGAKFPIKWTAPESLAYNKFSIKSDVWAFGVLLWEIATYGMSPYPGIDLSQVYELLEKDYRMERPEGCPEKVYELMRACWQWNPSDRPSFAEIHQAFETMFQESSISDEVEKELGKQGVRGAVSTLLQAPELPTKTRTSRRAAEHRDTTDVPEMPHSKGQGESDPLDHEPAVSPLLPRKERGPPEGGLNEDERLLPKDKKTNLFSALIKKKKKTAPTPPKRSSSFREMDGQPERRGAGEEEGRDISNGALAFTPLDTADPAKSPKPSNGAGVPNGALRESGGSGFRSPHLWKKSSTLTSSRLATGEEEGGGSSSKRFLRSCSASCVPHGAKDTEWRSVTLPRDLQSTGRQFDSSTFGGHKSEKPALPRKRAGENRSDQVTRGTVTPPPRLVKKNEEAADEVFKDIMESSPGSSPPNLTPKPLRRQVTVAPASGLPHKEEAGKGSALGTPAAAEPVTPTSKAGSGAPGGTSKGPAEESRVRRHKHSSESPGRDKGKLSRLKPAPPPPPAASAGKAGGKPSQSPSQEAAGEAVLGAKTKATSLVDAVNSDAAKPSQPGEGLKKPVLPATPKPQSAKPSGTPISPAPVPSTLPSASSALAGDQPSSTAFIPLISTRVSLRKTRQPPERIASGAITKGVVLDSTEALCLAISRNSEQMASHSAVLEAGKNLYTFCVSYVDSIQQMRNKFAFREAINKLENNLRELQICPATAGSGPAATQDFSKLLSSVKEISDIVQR
UniProt Q9Y2U5, sequence (whole entry, looked up): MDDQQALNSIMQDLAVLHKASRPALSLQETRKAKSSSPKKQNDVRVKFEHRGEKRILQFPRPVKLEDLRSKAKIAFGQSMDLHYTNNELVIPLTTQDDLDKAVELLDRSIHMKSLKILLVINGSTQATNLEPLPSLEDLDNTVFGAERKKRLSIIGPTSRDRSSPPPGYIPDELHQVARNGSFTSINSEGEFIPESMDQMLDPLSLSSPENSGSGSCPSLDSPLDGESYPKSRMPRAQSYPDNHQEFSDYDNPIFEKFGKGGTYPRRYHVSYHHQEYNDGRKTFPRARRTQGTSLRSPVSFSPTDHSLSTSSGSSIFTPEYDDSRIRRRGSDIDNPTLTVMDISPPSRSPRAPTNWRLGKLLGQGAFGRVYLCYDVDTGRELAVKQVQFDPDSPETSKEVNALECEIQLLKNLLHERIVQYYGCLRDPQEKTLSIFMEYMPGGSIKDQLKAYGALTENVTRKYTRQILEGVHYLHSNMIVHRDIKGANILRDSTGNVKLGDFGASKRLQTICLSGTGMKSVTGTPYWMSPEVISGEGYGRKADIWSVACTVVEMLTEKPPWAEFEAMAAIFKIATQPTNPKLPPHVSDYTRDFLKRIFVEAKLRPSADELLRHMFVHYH
UniProt Q96Q40, sequence (whole entry, looked up): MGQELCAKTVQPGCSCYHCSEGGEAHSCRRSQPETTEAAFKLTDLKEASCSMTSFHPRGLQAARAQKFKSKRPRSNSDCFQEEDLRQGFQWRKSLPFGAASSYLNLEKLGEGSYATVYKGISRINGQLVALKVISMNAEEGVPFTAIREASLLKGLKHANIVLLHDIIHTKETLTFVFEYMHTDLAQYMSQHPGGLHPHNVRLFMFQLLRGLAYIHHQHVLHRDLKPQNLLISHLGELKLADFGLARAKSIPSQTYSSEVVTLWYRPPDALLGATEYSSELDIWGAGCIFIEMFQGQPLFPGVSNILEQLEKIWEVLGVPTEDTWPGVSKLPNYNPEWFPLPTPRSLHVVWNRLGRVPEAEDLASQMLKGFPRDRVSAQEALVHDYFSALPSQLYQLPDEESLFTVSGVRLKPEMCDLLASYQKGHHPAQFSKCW

Sample 1
SMILES: N#CC1(c2ccccn2)CCN(Cc2cc(C(=O)O)c(=O)n3ccccc23)CC1
Read-out: cell-free assay
Method: competition with immobilised ligand
Concentration: 1 µM
| target | remaining binding [%] |
| --- | --- |
| TAOK1 (Homo sapiens, UniProt Q7L7X3) | 100 |
| ALK (Homo sapiens, UniProt Q9UM73, C1156Y) | 100 |
| NTRK1 (Homo sapiens, UniProt P04629) | 88 |
| MAPK4 (Homo sapiens, UniProt P31152) | 100 |
| SIK2 (Homo sapiens, UniProt Q9H0K1) | 100 |
| NEK5 (Homo sapiens, UniProt Q6P3R8) | 100 |
| CLK1 (Homo sapiens, UniProt P49759) | 80 |
| NEK1 (Homo sapiens, UniProt Q96PY6) | 100 |
| STK16 (Homo sapiens, UniProt O75716) | 100 |
| CDK15 (Homo sapiens, UniProt Q96Q40) | 100 |
| Tyrosine-protein kinase ABL1, phosphorylated (ABL1, Homo sapiens, UniProt P00519) | 100 |
| FLT1 (Homo sapiens, UniProt P17948) | 92 |
| MAPK9 (Homo sapiens, UniProt P45984) | 83 |

Sample 2
Cell line: HEK-293T
Read-out: pseudovirus infection
Method: FDA-approved drug library counter-screen
Organism: VSV pseudotyped with VSV-G
Concentration: 10 µM
Time: 16 h
Baseline: vehicle-treated
| Compound | GFP-positive cells [%] |
| --- | --- |
| COCCCOc1cc(C[C@@H](C[C@H](N)[C@@H](O)C[C@H](C(=O)NCC(C)(C)C(N)=O)C(C)C)C(C)C)ccc1OC | 83.3 |
| Cc1cn[nH]c1 | 108 |
| C[C@]12CCC(=O)C=C1CC[C@@H]1[C@@H]2CC[C@@]2(C)[C@H]1CC[C@]2(C)O | 96.3 |
| Cc1c(OCC(F)(F)F)ccnc1C[S+]([O-])c1nc2ccccc2[nH]1 (stereo not drawn) | 115 |
| C[C@H]1O[C@H](O[C@H]2[C@H](O)[C@@H](O)[C@@H](O[C@H]3[C@H](O)[C@@H](O)C(O)O[C@@H]3CO)O[C@@H]2CO)[C@H](O)[C@@H](O)[C@@H]1N[C@H]1C=C(CO)[C@@H](O)[C@H](O)[C@H]1O (stereo partly drawn) | 116 |
| CC1(C)S[C@@H]2[C@H](NC(=O)[C@H](N)c3ccccc3)C(=O)N2[C@H]1C(=O)O | 90.5 |
| Cc1ccsc1C(=CCCN1CCC[C@@H](C(=O)O)C1)c1sccc1C | 114 |
| CCCCc1nc(Cl)c(CO)n1Cc1ccc(-c2ccccc2-c2nn[nH]n2)cc1 | 91.8 |
| CC[C@@H](CO)NCCN[C@@H](CC)CO | 91.5 |
| Cc1cccn2c(=O)c(-c3nnn[nH]3)cnc12 | 109 |

Sample 3
Compound: COC[C@H]1OC(=O)c2coc3c2[C@@]1(C)C1=C(C3=O)[C@@H]2CCC(=O)[C@@]2(C)C[C@H]1OC(C)=O
Read-out: enzyme activity
Action: inhibitor
Concentration: 0.5 µM
Baseline: control
| target | remaining activity [%] |
| --- | --- |
| CAMK1G (Homo sapiens, UniProt Q96NX5) | 96.7 |
| CDK7 (Homo sapiens, UniProt P50613) | 93.3 |
| BRSK1 (Homo sapiens, UniProt Q8TDC3) | 91.2 |
| DMPK (Homo sapiens, UniProt Q09013) | 98.7 |
| Aurora kinase A (AURKA, Homo sapiens, UniProt O14965) | 93.9 |
| MAP3K2 (Homo sapiens, UniProt Q9Y2U5) | 98.4 |

Mixed results
| Compound | target | read-out | action | concentration | together with | quantity | value |
| --- | --- | --- | --- | --- | --- | --- | --- |
| O=C(O[C@@H]1Cc2c(O)cc(O)cc2O[C@@H]1c1cc(O)c(O)c(O)c1)c1cc(O)c(O)c(O)c1 | chymotrypsin | enzyme activity | inhibitor | 10 µM | DTT | inhibition | -0.5% |

A few entries again (sample 3):
| target | remaining activity [%] |
| --- | --- |
| CDK7 (Homo sapiens, UniProt P50613) | 93.3 |
| BRSK1 (Homo sapiens, UniProt Q8TDC3) | 91.2 |
| DMPK (Homo sapiens, UniProt Q09013) | 98.7 |
| Aurora kinase A (AURKA, Homo sapiens, UniProt O14965) | 93.9 |
| MAP3K2 (Homo sapiens, UniProt Q9Y2U5) | 98.4 |
